Published values of several laboratories.
Every numbered part comes from another study and shows a few of its results, in no order. Positions count from the first letter of the parent shown.

Study 1 — method: RNA Bind-n-Seq; molecule type: RNA; medium: in vitro; concentration: 365 nM; relative to: no-protein control; direction: higher = stronger binding
Target: RNA binding protein fox-1 homolog 2, RRM domain, GST-SBP tag (RBFOX2, Homo sapiens, UniProt O43251-10, residues 100-194)
Notes: natural RNA segment, single round, ends assumed
All sequences stand within: GGGAGUUCUACAGUCCGACGAUC … UGGAAUUCUCGGGUGCCAA
Residues (chain): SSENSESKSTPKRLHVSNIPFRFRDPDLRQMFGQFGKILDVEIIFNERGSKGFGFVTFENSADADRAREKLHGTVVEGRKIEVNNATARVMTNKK
Sequence	RBNS enrichment (R)
GCCCAGGCCGGCCAUCUUCUGCUGCUGGUACUUGGAUGGGCAAUGGUCACUGUGUUUCCACACAGCAAAAACAGACGUAGCCAUAUCAGAUGGAAAACAUGCAUAGACAC	0.477
UGGUUAUAAAAAUGUUAAUUCAGAAUUAGUUUAAUGCCUUAAUUAAACUAAUUAAUAGCUUUGGACACUUAAAAGAGCUCUAAAUUUGCUUGUACAUAAAGGCUUAAUUU	2.49
CACCCUGGCUGAGGGCCAGCCUCAUCUGCAGAGCCCUGGAGGAGGCCCACCUAUGGACACAGCCCGAGAGAUGGGCGCAAGGGGUGCUGGGGGAGGCCUGCUAUCCUGCC	0.575
AAGCCCAGAACUUCUCUUUUGACAAUAAAGUACUGAGCAGUGGUAUCAUGAGGGCCACCUCCACAUUGUCCCCUGCAGAAUAAAUGCGGAUGACAGAAAGCUUAUGCUGU	0.294
AAACUGAAUCGUGGGUGCAUUUCAGAAGAGAACGUUCCAUAUAAUGCAGCUAACCAAGGACUCCUGUGUUUCUAUAAGCUAAUGCUCCAGAAACUUUGCCAACCUGUUAG	1.02
UUACACAGAAAACCUUUGUUAAGGACUUGUGUAGAUCUGAUAAUUGGCAAAUUUUUAUUUUAAAAGUAUUCUUACAGAAGAGUUCCAUUUAAGAAUGUUCACUUAUAGGA	0.805
UUUCAUGACCUAGGGAAAAAGGAAUUACUCCUUUUUGUAGACUCAUACCUGAAAGCAGUGAUUUACUAGAAUUGCUUUGUGUGGCUACUAAGUUUAUUUUGUCAAAAAUG	0.368
GUGACCACAUCGAGCAAAUGGCCACAGAUAGGAGAUCAGCACGUGCUCGUCUCCUAGGAUCUGUCACCCCAGUGAUGACCCUGCAUGACACCAGCAGCACCCAGAGCCGC	10.2
CACCAGCAGAGUAGCCGCCGCUGCUGUGAGCCUGGGGACGACAUGGCAGGCUGGUCCCCCUCCGUGAAAGUGUGGAUUCCUACUUCCUGCUCUAAGCUUUGACACGUCAA	0.558
AAGCUGUGCUAAAUGUUUUCUUCAAGGGAACCAGAUUUAGUUCUUUACAGAAUUUUCCAGUGAAAUAAAACAUGUUGUAAUAGCUGUGUUUGAGAUGAAAUAAGAGGUUG	0.369
UAACACUUACCGACUUUUUUUGGUUUGGAAACAUAUUACCACGUCUUAAUAGGAUGGUGCCCAUAUAGGUGAGCAUCCCUUUAGAUCAUGGGAACCAGCAGACUGCAUUC	0.375
AAUAUAUUGAAAUGGGAGCUUUCAAGUCAAGGAGCCAAACAUAGUAACUAAAUCAUGACCAUCUGAUGCAAGAUGCAGUCAUAUCCAUGGUACUGAAAAUAACAUGAUGC	0.546

Study 2 — method: protein-binding microarray; molecule type: double-stranded DNA, one strand shown; medium: in vitro; concentration: 250 nM; notes: 60-bp whole probe; with: salmon DNA 0.4 mg/ml; relative to: random background probes; direction: higher = stronger binding; all sequences stand within: GCCTAGCAC … GTCTTGATTCGCTTGACGCTGCTG
Target: Interferon regulatory factor 7, full length, phosphomimetic (IRF7, Homo sapiens, UniProt Q92985, residues 1-503, S101K/S471D/S472D/S475D/S476D/S477D/S483D/S484D/S487D)
Chain of UniProt Q92985 (whole entry, unmodified, looked up): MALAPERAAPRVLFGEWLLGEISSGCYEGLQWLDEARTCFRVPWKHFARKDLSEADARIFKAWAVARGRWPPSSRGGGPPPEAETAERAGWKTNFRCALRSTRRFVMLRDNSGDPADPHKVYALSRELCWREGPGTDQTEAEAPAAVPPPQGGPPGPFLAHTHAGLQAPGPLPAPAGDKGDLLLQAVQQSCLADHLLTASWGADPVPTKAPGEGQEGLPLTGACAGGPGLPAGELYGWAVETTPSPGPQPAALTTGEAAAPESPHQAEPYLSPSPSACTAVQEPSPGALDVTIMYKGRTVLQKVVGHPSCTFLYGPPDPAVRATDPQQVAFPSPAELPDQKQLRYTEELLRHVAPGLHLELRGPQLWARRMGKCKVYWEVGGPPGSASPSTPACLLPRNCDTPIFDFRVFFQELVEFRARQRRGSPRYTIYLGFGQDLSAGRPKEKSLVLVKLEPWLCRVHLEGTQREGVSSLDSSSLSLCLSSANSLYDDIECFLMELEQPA
Sequence	log fluorescence
CCCACCTCTCACGGGCTTGTGTGCTAG	0.172 z-score
TTATGTATCGGTTTCGGTTAGTGCTAG	9.21 z-score
TCCTCTCTGCCACTCAGGTAGTGCTAG	0.186 z-score
TTAGGTATCCTTATACTTTAGTGCTAG	0.262 z-score
TCACATTTTGTTTTTCAACTGTGCTAG	1.17 z-score
TCACTTTTCTTTTCTTTACTGTGCTAG	2.45 z-score
TTAGGTATCGTTCTCGGTTAGTGCTAG	2.29 z-score
TTAGGTCTCCTATTCCTTTAGTGCTAG	0.897 z-score
TTAGGTTTCGGTATCGGTTGGTGCTAG	10.3 z-score
TCATCTTCCTTCATGGCACTGTGCTAG	1.13 z-score
GACGGAATGGGTCTCGGGACGTGCTAG	-0.158 z-score
CCCTTTTCATGCTCTTATATAGTGCTA	1.46 z-score
GACGGTTTCGGACTGTGGACGTGCTAG	5.14 z-score
CTTTCTCCCAAGTCTTGTTTTGTGCTA	3.32 z-score
TTAGAACTGGGGTATCGATTCGTGCTA	1.4 z-score
GACGAAGTGAGTATCGAGACGTGCTAG	-0.198 z-score
GACGGTATCGACTATCGGCACGTGCTA	-0.232 z-score
TTAGATTCCAGTTTCGATTCGTGCTAG	13.1 z-score
GACAGTCTCGGTTTCGGGACGTGCTAG	8.19 z-score
GACGCTTTCAGTTTCGAGACGTGCTAG	4.72 z-score

Study 3 — target: CCND1, cyclin fold, Cln2 fusion (human); method: yeast growth competition, sequencing; medium: yeast; notes: weak parent motif; relative to: not given; direction: higher = stronger binding
Starting sequence: CDKN1B docking peptide (human); PSACRNLFGPVDH; partner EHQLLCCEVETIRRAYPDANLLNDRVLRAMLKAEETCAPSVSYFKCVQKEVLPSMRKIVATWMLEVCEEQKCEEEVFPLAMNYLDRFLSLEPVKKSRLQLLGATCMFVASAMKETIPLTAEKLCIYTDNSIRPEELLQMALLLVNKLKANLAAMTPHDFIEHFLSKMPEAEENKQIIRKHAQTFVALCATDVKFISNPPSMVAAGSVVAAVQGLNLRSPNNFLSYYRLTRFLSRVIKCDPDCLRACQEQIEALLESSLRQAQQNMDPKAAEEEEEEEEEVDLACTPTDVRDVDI
Change	normalised enrichment score
PSACRNLFGPVAH [D12A]	0.867
PSACRNLFGPPDH [V11P]	1.17
PSACRNLFFPVDH [G9F]	0.4
PSACRNLFGPVDY [H13Y]	0.734
PKACRNLFGPVDH [S2K]	0.866
PSACRNLFGGVDH [P10G]	0.793
PSACENLFGPVDH [R5E]	0.927
PSAQRNLFGPVDH [C4Q]	-0.0496
PHACRNLFGPVDH [S2H]	0.312
PSACRNLFGPVDL [H13L]	0.575
PSACRNLFGPMDH [V11M]	0.634
PSACPNLFGPVDH [R5P]	0.314
PSACRNIFGPVDH [L7I]	0.828
PSACRILFGPVDH [N6I]	1.78
PSALRNLFGPVDH [C4L]	0.872
PSACRNLFGHVDH [P10H]	-0.00331
PSACRNLFMPVDH [G9M]	0.422
PSACRNLYGPVDH [F8Y]	-0.558
PSACRNLFGPQDH [V11Q]	0.274
PSACRNLFTPVDH [G9T]	0.299
PSACRNLAGPVDH [F8A]	0.0657
PSACRCLFGPVDH [N6C]	1.75
PSACRNLQGPVDH [F8Q]	0.336
PSACMNLFGPVDH [R5M]	0.672
PSHCRNLFGPVDH [A3H]	0.55

Study 4 — method: protein-binding microarray; molecule type: double-stranded DNA, one strand shown; medium: in vitro; concentration: not given; direction: higher = stronger binding
Target: TATA-box-binding protein 1 (TBP1, Arabidopsis thaliana, UniProt P28147, residues 1-200, full length assumed)
Notes: k-mer, scored over probes, only values ≥0.25
Target sequence (chain): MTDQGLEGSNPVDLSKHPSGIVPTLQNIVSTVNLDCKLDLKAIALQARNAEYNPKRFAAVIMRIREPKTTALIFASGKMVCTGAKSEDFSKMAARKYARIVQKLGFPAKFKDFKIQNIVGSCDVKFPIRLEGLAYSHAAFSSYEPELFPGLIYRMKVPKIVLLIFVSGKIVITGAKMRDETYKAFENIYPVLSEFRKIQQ
Sequence	E-score
ATATCAC	0.27
AAAAAGG	0.273
ATATGAA	0.313
ATCTATA	0.338
AAATACA	0.378
CATAAAA	0.335
TATATCA	0.422
ATAGAAA	0.275
TATACCA	0.344
CTTCTTA	0.291
AATATGG	0.264
ATAATAT	0.452
GCTATTA	0.289
AATATTA	0.448
CTTATTA	0.341
TATAGAA	0.316
ATATGGC	0.264

Study 5 — method: RNA Bind-n-Seq; molecule type: RNA; medium: in vitro; concentration: 100 nM; relative to: input RNA pool; direction: higher = stronger binding
Target: RING finger protein unkempt homolog, zinc fingers 1-6, SBP tag (UNK, Homo sapiens, UniProt Q9C0B0, residues 30-357)
Chain of UniProt Q9C0B0 (30-357, looked up): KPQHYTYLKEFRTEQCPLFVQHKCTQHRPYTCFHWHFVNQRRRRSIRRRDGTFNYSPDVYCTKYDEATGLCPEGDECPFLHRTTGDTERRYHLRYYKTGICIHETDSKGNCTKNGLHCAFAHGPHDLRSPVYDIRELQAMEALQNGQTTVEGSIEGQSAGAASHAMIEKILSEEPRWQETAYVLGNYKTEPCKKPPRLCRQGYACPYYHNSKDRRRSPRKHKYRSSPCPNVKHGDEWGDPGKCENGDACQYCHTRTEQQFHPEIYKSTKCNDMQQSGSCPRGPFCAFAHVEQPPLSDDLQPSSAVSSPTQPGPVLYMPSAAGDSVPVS
Notes: RNA with constant flanks, vertebrate orthologous sites, ends assumed
All sequences stand within: GGGAGUUCUACAGUCCGACGAUC … CAACAGAGGAUUGAGCAUCA
Sequence	bound/input enrichment [ratio]
AAAUAUAUUUUAUGCCAUGGACUCCAUACCGUACGGAUACAUUAAUAGAGUAUGCUUCUUUACAAGAUUUUCAAAAUGGCAGACAGACUACAACAUAUAAACUUCCCAAUCGAGUGGAUG	1.01
UACUAGCGUCAUACCAGCAUAUUAACUAGUCAUAUGUGCACAGCUUAAAAGGUAACCGUUUAGUUAUAUUUUUUAAUUUAAGAACGGCUUUUUCCCAAGACUGAAAAAGAAGCUACAAUU	1.08
UUGUAUUGAUCAGGUCUGUAAAUGUGUACUAAAAAAAUCAGAGUUUAUUUAUAAACAGAUUAGUAUAUUAAAAAAAAAGGUUUUCUUCAUUGAUGUAGUGGUAUGCAUUCAAUAAACUUG	0.294
GUAGACAUGAGAAAGUAUGCAUGUACCCCAUGUAUUUGCCUGGAAAUACAGAACGGAAGAAAGAAAAGCCAUGCAAUGUGACAAAGGUAUCUGAGAAGGAAGAUCCAGGCCAGAGUCCCG	0.19
CAUUAACACACGAAAUGUCUCCAGGGGGGUAUUAGAUUUGAUUUCUUACAUAUAAAACAAACCAACCAACCAUUUUUAAAGUAGAAGAGGGUUUUAGCUAGUAAAUGAAAUAUUCUUUUU	2.09
UAAUUCAAUGGUUGAGGGUUCAGAACUCAAAAAGGUUCGCUCCAACUCUAGAAUUUAUCAUAGGUACUUUUUACUGGAUGCUGACAUGCAGAGCCUAAGGUGGGAGCCAUCUAAGAAGGA	0.319
AAUUUUCUUAUUUUAGGUAUCAUUGCCCAAUGCCUAAGAUCUUUUAUGUUCAGCUGACUGUAGGAAAUAAUGAAUUUUUUGGAGAAGGAAAGACCCGACAAGCUGCUAGACACAAUGCUG	1.21
GAGCCCGGCUCACACAGACUUCACAACACUGAUGAAAGUAGCAAUUUCUAUAGUCACAGUAAGGUAGCAUUAGGGUAAUAUCACCGUGAGUUUACUCAUGUGCAGGUCUUGAAAUGUACA	0.592
GCACAUGCCGCUCUCACCAAAAGCAAACUGCCACUUAUCAAAUUUCAUUCAGAGCUGUUUUAGUGUUUCCUAUUCCCUACCCUUCCCCCUCCUUUCAAUGCUGAAAUAUCCUAAGUUGUC	2.01
GACCUAAGGGAGUUAGCAUCUUUAUUUUUAUAUCAAAGAUAAAGGUUAUUUUGAAAUUAUCAGGAUUUUUACACAACCCUGAAAUCUGUUGCUUUUGUAAACAAACUAUUUCCCCCCACC	1.46
GCAAUGAAAAAGCAGCCCUUCUCCCAGCCCCCUUUUCACUAGGAGAUACAAACGUUACCGUAGAAGAGCAAUUAAACUCAAUAAAUUUAUCUUUUCAGGAUGAUCCAGACUCCAGUACCA	1.2

Mixed results — method: cross-linking MS
Molecule	partner	test system	conditions	endpoint	value
SNX2 (Homo sapiens, UniProt O60749)	SNX6 (Homo sapiens, UniProt Q9UNH7)	cell fractions	with: DSSO	cross-linked residues	K346 to K230
DYNC1I2 (Homo sapiens, UniProt Q13409)	DYNC1H1 (Homo sapiens, UniProt Q14204)		hits only	interaction screen	cross-linked
SNRPA1 (Homo sapiens, UniProt P09661)	SF3A1 (Homo sapiens, UniProt Q15459)	cell fractions	with: DSSO	cross-linked residues	K221 to K188
DDX5 (Homo sapiens, UniProt P17844)	DDX17 (Homo sapiens, UniProt Q92841)	cell fractions	with: DSSO	cross-linked residues	K340 to K592

Repeated from above (mixed results):
Molecule	partner	test system	conditions	endpoint	value
SNX2 (Homo sapiens, UniProt O60749)	SNX6 (Homo sapiens, UniProt Q9UNH7)	cell fractions	with: DSSO	cross-linked residues	K346 to K230
DDX5 (Homo sapiens, UniProt P17844)	DDX17 (Homo sapiens, UniProt Q92841)	cell fractions	with: DSSO	cross-linked residues	K340 to K592
SNRPA1 (Homo sapiens, UniProt P09661)	SF3A1 (Homo sapiens, UniProt Q15459)	cell fractions	with: DSSO	cross-linked residues	K221 to K188
DYNC1I2 (Homo sapiens, UniProt Q13409)	DYNC1H1 (Homo sapiens, UniProt Q14204)		hits only	interaction screen	cross-linked
